Published values of several laboratories.
Lines come from different studies, so protocols differ.

CC1(COc2ccc3c(c2)ncn3-c2ccc3cccc(N4CCC(N)CC4)c3n2)COC1
CL/F (human patients, recurrent/progressive HGG or DIPG, serum; oral, 220 mg/m^2, day 28, median): 16 L/h/m²

Cn1ncnc1[C@H]1c2n[nH]c(=O)c3cc(F)cc(c23)N[C@@H]1c1ccc(F)cc1
CL/F at steady state (human patients, plasma; oral, 600 µg/m2 twice daily day 1, day 5, dose level DL3, median, together with: temozolomide 20 mg/m2 daily days 2-6): 4.5 L/h/m2

CC(C)Nc1nc2cc(Cl)c(Cl)cc2n1[C@H]1O[C@@H](CO)[C@H](O)[C@@H]1O
CL/F reduction (population PK model; human CMV transplant recipients; oral, dose not given; reference: other individuals): 32%

Cn1cc(-c2cn3nccc3c(-c3cnn([C@]4(CC#N)C[C@@H](C#N)C4)c3)n2)cn1
CL/F (healthy human, plasma; 400 mg once daily, day 10, multiple dose, fed, geometric mean): 73.8 L/h

CC[C@@H]1CN(C(=O)NCC(F)(F)F)C[C@@H]1c1cnc2cnc3[nH]ccc3n12
CL/F ratio (population PK modelling; human; oral, final model, outliers re-estimated; reference: RA patients over healthy subjects): 0.773

C[C@@H](Oc1ccc(S(C)(=O)=O)cc1C(=O)N1C[C@@H]2C[C@]2(c2cc(C(F)(F)F)on2)C1)C(F)(F)F
CL/F at steady state (elderly humans, plasma; 25 mg once daily, multiple dose, geometric mean): 74.1 mL/min

Cc1ncnc2c1ccn2[C@@H]1C[C@H](Oc2cc(C(F)F)c(F)c3c2CNCC3)[C@@H](O)[C@H]1O
CL/F (human; oral, 6 mg twice daily): 21.4 L/h

CCn1cc(C(=O)N2CCOCC2)c(=O)c2cc(NC3Cc4ccccc4C3)cnc21
CL/F (human, fed; oral suspension, 2000 mg/day twice daily, day 8, arithmetic mean): 86.1 L/h

Cn1cncc1[C@@](N)(c1ccc(Cl)cc1)c1ccc2c(c1)c(-c1cccc(Cl)c1)cc(=O)n2C
CL/F (human patients; oral, 200 mg/m2, first dose, cycle 1, median): 643 mL/min/m2

N#Cc1ccc2c(c1)[C@H]1CCCN(C(=O)c3ccc4[nH]cnc4c3)[C@H]1C2
CL/F steady state (human, plasma; oral, 80 mg once daily, day 28 steady state): 54.1 mL/min

Excerpt of the above:
N#Cc1ccc2c(c1)[C@H]1CCCN(C(=O)c3ccc4[nH]cnc4c3)[C@H]1C2
CL/F steady state (human, plasma; oral, 80 mg once daily, day 28 steady state): 54.1 mL/min
